Results gathered from unrelated publications.
Protocols differ between the studies behind these lines.
Cell line: A549/ATCC

The growth percent of `Cc1cc(C)n(-c2nc(-c3ccc(Cl)cc3)c3c(NC(=O)c4ccccc4)nnc-3[nH]2)n1` is reported as 104% (NCI60 SRB; 10 µM).
For `CCc1n(Cc2ccc3ccccc3n2)cc[n+]1Cc1ccc2ccccc2c1`, the TGI was 14.1 µM (NCI60 five-dose).
`Cc1cc(-c2ccccc2)n(-c2nc(-c3ccc(Cl)cc3)c3c(NC(=O)c4ccccc4)nnc-3[nH]2)n1` has a growth percent of 93.1% (NCI60 SRB; 10 µM).
The TGI of `CCCc1n(Cc2ccc3ccccc3n2)cc[n+]1Cc1ccc2ccccc2c1` is reported as 11.8 µM (NCI60 five-dose).
`Cn1cncc1C1=CN(c2ncnc3[nH]cnc23)CCS1` has a TGI of > 200 µM (lung cancer cell line).
For `CCc1n(Cc2ccc3ccccc3n2)cc[n+]1Cc1ccc2ccccc2n1`, the TGI was > 100 µM (NCI60 five-dose).
`Cc1cc(C)n(C(=S)[S][Au][PH](CCCCCC[PH]([Au][S]C(=S)n2nc(C)cc2C)(c2ccccc2)c2ccccc2)(c2ccccc2)c2ccccc2)n1` has a GI50 of 0.351 µM (cell growth, NCI-60 screen; non-small cell lung cancer).
The growth percent of `O=C(Nc1nnc2[nH]c(=S)[nH]c(-c3ccc(Cl)cc3)c1-2)c1ccccc1` is reported as 96.7% (NCI60 SRB; 10 µM).
The log TGI of `S=C([S][Au-][P+](CCCCCC[P+]([Au-][S]C(=S)n1cccn1)(c1ccccc1)c1ccccc1)(c1ccccc1)c1ccccc1)n1cccn1` is reported as > -4 log10 M (cell growth, NCI-60 screen; non-small cell lung cancer).
The TGI of `Cc1n(Cc2ccc3ccccc3n2)cc[n+]1Cc1ccc2ccccc2c1` is reported as 13.1 µM (NCI60 five-dose).
`CSc1nc(-c2ccc(Cl)cc2)c2c(NC(=O)c3ccccc3)nnc-2[nH]1` gave a growth percent of 104% (NCI60 SRB; 10 µM).
With `COc1cc(-c2ccc(-c3ccc(C(=N)N)nc3)s2)cc(OC)c1OC` the GI50 was 2.06 µM (NCI five-dose screen).

A few entries again:
The TGI of `Cc1n(Cc2ccc3ccccc3n2)cc[n+]1Cc1ccc2ccccc2c1` is reported as 13.1 µM (NCI60 five-dose).
